Experimental data pooled from the literature.
Parts stem from different laboratories: compare values within a part only.

Sample 1 — technique: Sort-seq; item: YFP reporter; medium: E. coli; notes: PhoQ-PhoP variant library; added: 10 µM Mg2+; reference: high Mg2+ state; reading: higher = stronger signaling
Substance: PhoQ, residues 284 288 289 292 302 303 SLGVVW
target	fold induction
PhoP, residues 12 14 15 18 19 QYFSL (Escherichia coli, UniProt P23836)	5.08
PhoP, residues 12 14 15 18 19 NYFRM (Escherichia coli, UniProt P23836)	16.8
PhoP, residues 12 14 15 18 19 TQALL (Escherichia coli, UniProt P23836)	7.66

Sample 2 — technique: RNA Bind-n-Seq; form: RNA; medium: in vitro; tested at: 365 nM; reference: no-protein control; reading: higher = stronger binding
Target: RNA binding protein fox-1 homolog 2, RRM domain, GST-SBP tag (RBFOX2, Homo sapiens, UniProt O43251-10, residues 100-194)
Notes: natural RNA segment, single round, ends assumed
Residues (chain): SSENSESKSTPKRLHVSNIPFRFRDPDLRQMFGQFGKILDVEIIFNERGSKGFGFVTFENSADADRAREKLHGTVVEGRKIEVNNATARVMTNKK
Strand	RBNS enrichment (R)
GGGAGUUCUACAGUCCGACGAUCUUGCAUCCCCAGGGGCUGCCGCAGAGGCCGGAGACCUCCUGGACUAGUUCGGCGAGGAGACUGGCCACUGGGGGUGGCUGUUCGGGACUGAGAGCGCCAAGGGUCUUUGCUGGAAUUCUCGGGUGCCAA	0.821
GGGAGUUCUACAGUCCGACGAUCGAAUUAAUACAGACACCAGAUUUUAGGCUUUGAAUUUGUUCUUAGUUGUUCAUUCCAGUCCUCUAAGUCUCAUUUCGUAUACAUUAUAUAAGCAAAUUAAGAAUUACUCAUGGAAUUCUCGGGUGCCAA	0.54
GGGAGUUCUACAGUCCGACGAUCCCACCGUGUCCCUGUUCUGCGCUAGCACUGCCUCCUGCUGCAGCCCCUGACUUGACCUCAGGGCCUGGGGAGGGAAGCACCAUACCAGGGCCAGGAGCUCCAACUCCGACUGGAAUUCUCGGGUGCCAA	0.263
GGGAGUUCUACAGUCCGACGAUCUCACCCAUUGUGAGAGUCACUUGGUCAAAUUUAGUUAAUGAGUCCAUUUUGAUCAUAAUGCACUCACACUAGUGUGUUUGAAUACUGACUGUCUGUCUGUCCAGUAAGGAUGGAAUUCUCGGGUGCCAA	0.385
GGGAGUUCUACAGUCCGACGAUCAUUUUCUUUUGUCCUCCCCAAAUUUUGUCAAGUUUUUUCAUUCAUAUUUUACAUUAAAGCUUAUUUUGGGGAGAUAUGAAGGUCAUCUUCAUAAAUACAUAACAACCCUCUGGAAUUCUCGGGUGCCAA	0.606
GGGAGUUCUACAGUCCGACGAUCAAAGUGCCCUUCAACGGACCCUGUUCACUGCUGCACUUCUCAAUGAAUUAAAACUGACUUCUGUUCUAGUGGCAAUGUGUCCUUUGUUUUUAGUCCACAGGUGUUGAUUCUGGAAUUCUCGGGUGCCAA	0.214
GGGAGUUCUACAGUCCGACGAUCUUCUUGAAGAUAUGCUUGUUGCUUUACAACAUAUGUAAGCUAUUCUUUAGCAUAAAUGCAUUCAUUCUUUAAUAAAAAUAUGUUUGCAUUAAUAAAGCUGAGGAGUUUCAUGGAAUUCUCGGGUGCCAA	0.265
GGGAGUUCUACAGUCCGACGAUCACUCUUUAUAAAAUAAAGUGUUAGGUAAAUUGAGAAGACCAUUCCAUCAUUGAAGUGUUGGGAUAUGAAUACAUUCCAGAGCAUAGCCUUUUGUAAUUUUAGGUAGUUAUUGGAAUUCUCGGGUGCCAA	0.554
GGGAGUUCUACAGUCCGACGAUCGUUGUCAUUUGAAACUCUUCACAUAAAAUUUUCUAAUAUUCAUUUGGAAAACCUCUCCACUGGAGAGGUUUCAUCUCUGAGAGGUUUUGUAAUAAUAGUGUAAGUUCAGUUGGAAUUCUCGGGUGCCAA	0.458

Sample 3 — technique: protein-binding microarray; form: double-stranded DNA, one strand shown; medium: in vitro; tested at: 250 nM; notes: 60-bp whole probe; added: salmon DNA 0.4 mg/ml; reference: random background probes; reading: higher = stronger binding; all sequences stand within: GCCTAGCAC … GTCTTGATTCGCTTGACGCTGCTG
Target: Interferon regulatory factor 7, full length, phosphomimetic (IRF7, Homo sapiens, UniProt Q92985, residues 1-503, S101K/S471D/S472D/S475D/S476D/S477D/S483D/S484D/S487D)
Target sequence (chain): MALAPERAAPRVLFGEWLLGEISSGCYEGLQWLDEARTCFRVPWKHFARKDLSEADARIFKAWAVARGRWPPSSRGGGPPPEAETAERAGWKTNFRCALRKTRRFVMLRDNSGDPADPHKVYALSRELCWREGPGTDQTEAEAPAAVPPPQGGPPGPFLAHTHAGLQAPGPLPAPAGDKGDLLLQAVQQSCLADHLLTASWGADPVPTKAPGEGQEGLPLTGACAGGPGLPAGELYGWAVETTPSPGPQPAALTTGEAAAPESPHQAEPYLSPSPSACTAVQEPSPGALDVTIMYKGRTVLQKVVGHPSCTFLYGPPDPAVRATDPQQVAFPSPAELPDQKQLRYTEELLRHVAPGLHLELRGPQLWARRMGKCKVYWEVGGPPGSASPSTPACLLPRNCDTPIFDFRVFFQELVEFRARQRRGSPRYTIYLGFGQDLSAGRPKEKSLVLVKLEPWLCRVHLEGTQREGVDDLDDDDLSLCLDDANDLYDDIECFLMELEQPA
Strand	log fluorescence [z-score]
TTAGATCTCAGTCTAGATTAGTGCTAG	-0.0224
TTGCTTTCCTTTATGTACTCGTGCTAG	1.49
TTAGGTATCGGTCGCGGTTAGTGCTAG	0.503
TCAAGTCTCAATATTAGACTGTGCTAG	0.0523
TTAGATACCGGGTATCGATTAGTGCTA	1.19
TCATTTTTTTTTTACTTACTGTGCTAG	1.06
TCACATATGCTTTTTAGACTGTGCTAG	0.164
TCACCTATCCAAGTTCCCACTGTGCTA	0.885
TTTTTTTTCTACTTCTGTTTGTGCTAG	1.91
GGCCGTCTGAGCTCCGTAGCGTGCTAG	-0.964

Sample 4 — technique: protein-binding microarray; form: double-stranded DNA, one strand shown; medium: in vitro; tested at: 0.8 µM; notes: whole 60-bp probe, no competitor; reading: higher = stronger binding
Target: Centromere-binding protein 1, full length, N-terminal tag (CBF1, Saccharomyces cerevisiae, UniProt P17106, residues 1-351)
UniProt P17106, sequence (whole entry, looked up): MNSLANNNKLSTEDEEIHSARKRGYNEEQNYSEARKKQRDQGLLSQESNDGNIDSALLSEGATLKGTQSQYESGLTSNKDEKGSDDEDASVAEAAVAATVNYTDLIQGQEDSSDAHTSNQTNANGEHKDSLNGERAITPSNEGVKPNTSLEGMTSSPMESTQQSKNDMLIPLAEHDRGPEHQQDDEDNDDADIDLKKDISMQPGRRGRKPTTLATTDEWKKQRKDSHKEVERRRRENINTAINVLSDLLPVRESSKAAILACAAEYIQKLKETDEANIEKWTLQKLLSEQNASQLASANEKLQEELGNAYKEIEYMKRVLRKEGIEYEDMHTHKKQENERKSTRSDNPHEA
Strand	fluorescence intensity [a.u.]
CTAGTCAGCGATGGTGACGTAAACGACTTTTTGTTCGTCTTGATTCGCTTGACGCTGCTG	484
CTAAAATACTGATACCACATGAACTATTGATCATTCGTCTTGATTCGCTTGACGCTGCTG	567
CTATTTCCAGTACGTAACACCACGCGGCGCCCCTTCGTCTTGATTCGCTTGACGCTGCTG	652
GAACACTCAATGTGTGGCGTGTGTGAATTTTAATAGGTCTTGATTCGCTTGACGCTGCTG	526
GAATCGACACTCAACGTGATAATCAAAAGGCAATAGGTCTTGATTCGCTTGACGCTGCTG	1050
CTAACTTGACTGCACCTCGTGTCGGAAGATTTTTTCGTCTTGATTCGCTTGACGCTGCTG	604
GAATCTTAACGGCGCAGCATCACCGGGTGATGATAGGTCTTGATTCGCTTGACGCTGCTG	522
GAAGAACTAAGAAAGGCCGTGACTTAACTGGTCTAGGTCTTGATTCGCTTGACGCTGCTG	622
CTAACATGTGTTAATCACGCGTTGATACAATGTTTCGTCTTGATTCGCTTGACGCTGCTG	1160
CTATGGTAACAAAGTCACGGCTCCCGGATGTAGTTCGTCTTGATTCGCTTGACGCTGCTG	657
TGTACGAAGCTATGTCACAAGGTTATAGTAGTTAGGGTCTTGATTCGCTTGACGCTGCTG	714
GAATTTATCTACTACCACGAGTTTATTACGGCGTAGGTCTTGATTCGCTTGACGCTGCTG	554

For quick reference, copied from above (sample 4):
Strand	fluorescence intensity [a.u.]
GAAGAACTAAGAAAGGCCGTGACTTAACTGGTCTAGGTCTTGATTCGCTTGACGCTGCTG	622
CTAAAATACTGATACCACATGAACTATTGATCATTCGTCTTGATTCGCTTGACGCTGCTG	567
